Measurements from different studies.
A part holds a random share of what one study measured. Positions count from the first letter of the parent shown.

Sample 1
Target: ABI1, truncated, D143A, DHFR fusion (Arabidopsis thaliana)
Method: DHFR PCA, deep sequencing
Matrix: yeast
Setting: methotrexate growth selection, single substitutions
Together with: (+)-ABA 200 µM
Relative to: wild-type fitted maximum
Reading: higher = stronger binding
Starting sequence: PYL1, truncated, DHFR fusion (Arabidopsis thaliana); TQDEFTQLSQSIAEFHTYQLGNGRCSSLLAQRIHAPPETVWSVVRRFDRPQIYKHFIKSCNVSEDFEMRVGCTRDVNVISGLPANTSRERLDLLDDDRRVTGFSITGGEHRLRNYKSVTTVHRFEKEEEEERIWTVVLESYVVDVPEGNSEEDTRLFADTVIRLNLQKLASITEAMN
Variant	relative binding score [%]
W134N	97.1
P37R	51.7
Q19F	87.9
R32D	84.3
L29A	69.3
R88D	70.6
Y53N	32.8
T135Q	0.436
N85Y	100
E64R	98
D159S	78.9
T39Y	92.7
E131P	104
L169M	56.6
S9L	78.5
T101W	40.3
V143H	2.41
S104H	68.9
E147P	95.6
L112K	-9.68
E89G	9.71
R123P	104
V142L	85

Sample 2
Target: CREB3L4, bZIP domain (human)
Method: DHFR protein complementation
Matrix: yeast
Setting: single substitutions, most at no-binding floor
Relative to: wild-type JUN-FOS pair
Reading: higher = stronger binding
Starting sequence: JUN, bZIP domain (human); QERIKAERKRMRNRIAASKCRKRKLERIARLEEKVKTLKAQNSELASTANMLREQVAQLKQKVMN; partner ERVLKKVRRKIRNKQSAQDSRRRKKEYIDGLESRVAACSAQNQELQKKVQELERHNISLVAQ
Variant	binding fitness
A40R	-1.35 natural log
V56Y	-1.42 natural log
N42R	-1.4 natural log
K36W	-1.51 natural log
Q55M	-1.42 natural log
R53N	-1.38 natural log
R30S	-1.29 natural log
S47E	-1.49 natural log
L38H	-1.49 natural log
K39M	-1.09 natural log
V35W	-1.34 natural log
S47T	-1.51 natural log
E54N	-1.43 natural log
V56A	-1.59 natural log
I28Q	-1.63 natural log
L45R	-1.53 natural log
V35M	-1.12 natural log
A29Q	-1.51 natural log
S43A	-1.39 natural log
V56F	-1.47 natural log
K39A	-1.47 natural log
A40I	-1.48 natural log
T37H	-1.2 natural log
M51G	-1.37 natural log

Sample 3
Target: RNA binding protein fox-1 homolog 2, RRM domain, GST-SBP tag (RBFOX2, Homo sapiens, UniProt O43251-10, residues 100-194)
Method: RNA Bind-n-Seq
Molecule type: RNA
Matrix: in vitro
Concentration: 365 nM
Setting: natural RNA segment, single round, ends assumed
Relative to: no-protein control
Reading: higher = stronger binding
Constant ends, left off below: GGGAGUUCUACAGUCCGACGAUC … UGGAAUUCUCGGGUGCCAA
Residues (chain): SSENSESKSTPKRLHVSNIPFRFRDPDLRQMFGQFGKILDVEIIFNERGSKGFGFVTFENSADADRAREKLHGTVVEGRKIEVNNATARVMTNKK
Strand	RBNS enrichment (R)
UUCUUUUACAAAUCAUAAUUAGUACUUUUGGUUAUUACCGUCUUCAGUGUUAGCCCAAAGAUUCUGAGGUUUAGAAAAAAAUUAUGUAAGAUCUGAACAUCAGUUUGCAG	0.349
GUCAGGACACUAGUUCAGUUCCCAGUACCCACAUGGUGGCUCACAACCUUCUGUGACUACAGUUCCAGAUAACCUGACACCCUCCUCUGGCCUCCUCGGGUGCCUGUGGU	0.401
AGGAGCCCCAUAGUCCCGCCUGCAGCCUGUAACCAUCGGCUGGGCCCUGCAAGGCCCACACUCACGCCCUGUGGGUGAUGGUCACGGUGGGUGGGUGGGGGCUGACCCCA	0.375
UCAAAUACUCUGUCUGCUAUGGAAAGUUCCAGUGUGCUGACUGGUCUGUGAUUUUGUACCUUGUGAAGGAGACAGAGGGAGGCAGAUGAAUAAACAGUUGCUCUCUGUCC	0.29
AGACAUUCUAUUUGAACACUUGCAAUUACCUAGAUCUAGUUGGCCUUUGGUUGAUAGAUCCUCUGCCUCGGAAUUUCAUUGAGUUUUUUUCUUCCUUGCCUUUGGGUGUC	0.551
UGUCCCAGCCUCCAGCAAGGGCACAGCUCUGUCCCCUGCCUUUCUCUCCCUUUGUCCCCACUGCAUGUUGACACAAGUAUGGAAGUGGAGCCUGGUUAGAACUUGUUUCU	3.73
GCUCUUCUUGGGGAAAGUGGUCAACCCAGCUGCUGGGUAAUUGUGGUGGGGAGGCCACAGGAAGGCCCAACCUGCACGGCAGGACCCCCCUGCAUGGCAGGACCCCUGUG	0.542
GCUGUAUCAUGAGAUUUUGAGGGGACCGAGCCCUGUUACAUGGAUGUGAACAGUGAGGAUCAGAGGUUUUAUCAGAACACAUUCUUUUUUUCUACCAACUCUCCAGAGCG	0.955
CCGCCAAAUGUCUACACAGUAUACACAGGACAUCGUUGCUGCCGCCGUGACUGGUUUUCUGUCCCCAAGAACGUGACGUUCGUGAUGUCCUGCCCGCCGGGAGUCUUUCC	0.419
UGGGGGGAGAACAGAAGGGGGACGACGCCCCCGCACCUCCUGCGAUCUGGCUGGCUUGGAUCUCGUUUUUAACCCGUUCCUGCCCCACCUGCCCUAUAGUUAUGGCCUGU	0.226
CAAAUUGAGUUGAUGGAUUUAAGAUAAGCCUUUGGGGUUCCUGUCAGUUUUCUGGGCCCUGAGGAAGGGUUGGGCCUCCUUUACUCUCAGUAUUUUGAGUGUUUUUCAAA	0.551
AUUUGCACAAAAAGAUACCUUAAAAUUUGAAACAUUGCUUUUAAAACUACUUAGCACUUCAGGGCAGAUUUUAGUUUUAUUUUCUAAAGUACUGAGCAGUGAUAUUCUUU	0.462

Sample 4
Target: Histone acetyltransferase KAT6A, winged helix 2, GST fusion (KAT6A, Homo sapiens, UniProt Q92794, residues 85-181)
Method: protein binding microarray
Molecule type: double-stranded DNA, one strand shown
Matrix: in vitro
Concentration: not given
Setting: 8-mer, flanks averaged, mean of 2 arrays, mostly near background
Relative to: not given
Reading: higher = stronger binding
Residues (chain): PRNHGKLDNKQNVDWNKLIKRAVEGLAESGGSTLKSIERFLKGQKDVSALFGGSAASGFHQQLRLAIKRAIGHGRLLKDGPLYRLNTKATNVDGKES
Strand	E-score
CTAACCCA	-0.0655
GACCCAGA	0.0474
AATGTTCA	-0.107
CCGGACCA	0.0683
GGGTCCAA	-0.0581
ACTATGAG	-0.143
GATTTGGA	-0.12
GGGGCTAA	0.107
CGGTTAAC	-0.103
GCCGCCTA	-0.0264
AAACCGTC	0.0767
ACACTTCC	-0.194
AGCAGCAG	0.161
AACAGGGA	0.0002
ACACCCCT	-0.122
AGTAAACG	-0.163
CCCGTTGC	-0.015

Sample 5
Target: CEP164, C-terminal peptide (human)
Method: DHFR complementation, deep sequencing
Matrix: yeast
Setting: single substitutions, model-inferred values
Relative to: wild type
Reading: higher = weaker binding
Starting sequence: PDZK1, PDZ domain 2 (human); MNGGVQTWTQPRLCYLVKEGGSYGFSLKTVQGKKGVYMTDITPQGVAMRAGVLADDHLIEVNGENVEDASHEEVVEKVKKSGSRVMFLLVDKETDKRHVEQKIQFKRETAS; partner HNRVKVYRF
Variant	binding free energy change [kcal/mol]
K102M	-0.0728
V30C	0.0646
T94V	0.108
S111I	0.0207
E60D	0.289
V74G	1.23
K77L	0.0324
G21M	-0.0386
D68V	0.235
N62P	0.649
Q6W	0.078
V74E	1.11

Sample 6
Target: CCNB3, cyclin fold, Cln2 fusion (human)
Method: yeast growth competition, sequencing
Matrix: yeast
Setting: weak parent motif
Relative to: not given
Reading: higher = stronger binding
Starting sequence: FZR1 docking peptide (human); QDYERRLLRQIVI
Variant	normalised enrichment score
L8A	0.145
D2A	0.0821
R9A	-0.333
I13A	-0.224
Q1A	0.436
R5K	0.179
R5A L7A	0.0705
L8F	0.0348
Y3A	0.16
R6A	0.58

Sample 7
Target: Interferon regulatory factor 5, full length, phosphomimetic (IRF5, Homo sapiens, UniProt Q13568-2, residues 1-514, S451D/S453D/S456D/S462D)
Method: protein-binding microarray
Molecule type: double-stranded DNA, one strand shown
Matrix: in vitro
Concentration: 940 nM top
Setting: 60-bp whole probe
Together with: salmon DNA 0.4 mg/ml
Relative to: random background probes
Reading: higher = stronger binding
Constant ends, left off below: GCCTAGCAC … GTCTTGATTCGCTTGACGCTGCTG
Strand	fitted relative affinity [z-score]
TTAGGTCGCCTTATCCTTTAGTGCTAG	0.109
TTAGATCTCCGTCTCGATTAGTGCTAG	1.67
TCAGGTTTCGGTTTCGGTTAGTGCTAG	16.6
TCAGAAATTTCTTTCTAACTGTGCTAG	0.2
GACGGTCTCGGTTTCGGGACGTGCTAG	6.36
GTCAGGGGTCTTGCTCTGTAGTGCTAG	-0.315
TTAGATTTGAGTTTCGATTAGTGCTAG	8.61
GACGGACTGGGGACTGGGGAAGTGCTA	-0.413
TCATATATACAAACTAAGACTGTGCTA	0.529
GACGGTCTCGGTTTCGCGACGTGCTAG	5.21
TCAGTTTTGTGTCTGGGACTGTGCTAG	0.303
GACTATATCGGGTTTCGAGACGTGCTA	1.75
TCATCTCTGGCCCTCCTACTGTGCTAG	0.557
TTCTGGTTCCCATTCCAGGGGTGCTAG	1.09
GACGGTGTCGGGTATCGGGACGTGCTA	0.712
GACGATATCAGACTGCAGACGTGCTAG	-0.531
TTAGGTATCAACTATCGGTTAGTGCTA	2.04
TTCGATCTCAGTCTCGATTAGTGCTAG	3.23
TTAGATCTCAGAGTGGATTAGTGCTAG	-0.203
GCGGGAGAAAGCAAGCCCAGGTGCTAG	-0.74
GACGGTCTCCTCTTCCTGACGTGCTAG	0.304
GACGATATCAGTAACGAGACGTGCTAG	0.0404
GACGGACGGGGACTGGGGACGTGCTAG	-0.347
TTAGGTCTCGAACTGGGTTAGTGCTAG	0.608
TTAGGACTGCTTCACCTTTAGTGCTAG	0.0548

Excerpt of the above (sample 4):
Strand	E-score
CGGTTAAC	-0.103
GATTTGGA	-0.12
ACACTTCC	-0.194
ACTATGAG	-0.143
GCCGCCTA	-0.0264
CTAACCCA	-0.0655
AGTAAACG	-0.163
AATGTTCA	-0.107
GACCCAGA	0.0474
AAACCGTC	0.0767
GGGTCCAA	-0.0581
ACACCCCT	-0.122
AGCAGCAG	0.161
CCCGTTGC	-0.015
GGGGCTAA	0.107
AACAGGGA	0.0002
